Published values of several laboratories.
Lines come from different studies, so protocols differ. Numbers after ± are the reported error.
CSNK1E: Casein kinase I isoform epsilon (CSNK1E, Homo sapiens, UniProt P49674)
Sequence of UniProt P49674 (whole entry, looked up): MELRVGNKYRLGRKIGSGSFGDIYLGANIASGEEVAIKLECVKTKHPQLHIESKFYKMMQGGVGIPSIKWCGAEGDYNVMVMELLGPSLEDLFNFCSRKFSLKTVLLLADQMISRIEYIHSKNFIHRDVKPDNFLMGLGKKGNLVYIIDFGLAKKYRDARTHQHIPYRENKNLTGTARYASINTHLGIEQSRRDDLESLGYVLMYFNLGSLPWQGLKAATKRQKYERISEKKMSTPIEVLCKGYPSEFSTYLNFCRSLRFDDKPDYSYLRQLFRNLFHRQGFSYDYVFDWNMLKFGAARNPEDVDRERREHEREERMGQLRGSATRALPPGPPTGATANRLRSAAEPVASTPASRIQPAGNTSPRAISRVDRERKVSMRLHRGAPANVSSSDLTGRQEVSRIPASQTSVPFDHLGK
60 kDa heat shock protein, mitochondrial with HSP10: 60 kDa heat shock protein, mitochondrial, with HSP10 (Homo sapiens, UniProt P10809)
Sequence of UniProt P10809 (whole entry, looked up): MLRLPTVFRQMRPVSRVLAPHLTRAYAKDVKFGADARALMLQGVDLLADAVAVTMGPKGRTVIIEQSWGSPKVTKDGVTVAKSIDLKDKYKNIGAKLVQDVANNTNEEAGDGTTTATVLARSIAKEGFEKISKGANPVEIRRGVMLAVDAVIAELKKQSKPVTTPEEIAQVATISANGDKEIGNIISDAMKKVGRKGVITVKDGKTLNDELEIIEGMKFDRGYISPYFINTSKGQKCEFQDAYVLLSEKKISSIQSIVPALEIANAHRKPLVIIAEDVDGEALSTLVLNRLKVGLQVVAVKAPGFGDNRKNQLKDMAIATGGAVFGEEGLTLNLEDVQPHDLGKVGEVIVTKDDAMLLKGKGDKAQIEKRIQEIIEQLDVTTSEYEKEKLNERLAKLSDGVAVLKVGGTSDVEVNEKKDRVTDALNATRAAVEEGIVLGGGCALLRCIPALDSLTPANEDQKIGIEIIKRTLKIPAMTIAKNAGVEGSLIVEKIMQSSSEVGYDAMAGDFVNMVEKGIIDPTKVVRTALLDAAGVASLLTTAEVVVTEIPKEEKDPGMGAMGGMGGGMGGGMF
DRD2: D(2) dopamine receptor (DRD2, Homo sapiens, UniProt P14416)
Sequence of UniProt P14416 (whole entry, looked up): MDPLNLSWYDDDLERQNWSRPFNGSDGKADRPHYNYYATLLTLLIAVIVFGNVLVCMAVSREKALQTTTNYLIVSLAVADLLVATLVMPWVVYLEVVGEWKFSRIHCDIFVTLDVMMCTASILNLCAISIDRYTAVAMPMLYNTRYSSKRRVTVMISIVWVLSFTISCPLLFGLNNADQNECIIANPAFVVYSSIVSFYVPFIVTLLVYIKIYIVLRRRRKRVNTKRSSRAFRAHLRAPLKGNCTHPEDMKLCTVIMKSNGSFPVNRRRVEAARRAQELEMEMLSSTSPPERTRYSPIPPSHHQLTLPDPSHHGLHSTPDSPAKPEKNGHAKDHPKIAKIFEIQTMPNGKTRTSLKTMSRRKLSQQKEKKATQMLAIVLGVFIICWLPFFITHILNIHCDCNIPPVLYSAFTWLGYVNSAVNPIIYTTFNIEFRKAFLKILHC
PTGS2: Prostaglandin G/H synthase 2 (PTGS2, Homo sapiens, UniProt P35354)
Sequence of UniProt P35354 (whole entry, looked up): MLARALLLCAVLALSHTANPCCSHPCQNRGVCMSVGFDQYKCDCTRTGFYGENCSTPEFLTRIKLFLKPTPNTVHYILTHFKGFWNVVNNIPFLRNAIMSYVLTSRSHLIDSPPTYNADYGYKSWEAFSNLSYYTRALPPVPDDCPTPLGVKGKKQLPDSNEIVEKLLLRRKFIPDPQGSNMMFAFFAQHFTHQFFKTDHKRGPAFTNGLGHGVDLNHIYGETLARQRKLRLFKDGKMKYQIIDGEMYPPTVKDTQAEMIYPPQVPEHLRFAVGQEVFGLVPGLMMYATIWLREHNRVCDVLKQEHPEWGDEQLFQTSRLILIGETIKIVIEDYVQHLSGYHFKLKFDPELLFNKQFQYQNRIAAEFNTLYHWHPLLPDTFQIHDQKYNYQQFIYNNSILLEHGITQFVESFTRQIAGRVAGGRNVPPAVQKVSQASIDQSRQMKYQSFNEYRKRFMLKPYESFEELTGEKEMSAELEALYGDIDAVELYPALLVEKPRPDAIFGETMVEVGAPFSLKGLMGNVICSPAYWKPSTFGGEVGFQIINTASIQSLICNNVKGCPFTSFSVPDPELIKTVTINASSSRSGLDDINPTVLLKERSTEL
KRAS C118S/G12V with SOS1: GTPase KRas, with SOS1 (KRAS, Homo sapiens, UniProt P01116, C118S/G12V)
MCL1: Induced myeloid leukemia cell differentiation protein Mcl-1 (MCL1, Homo sapiens, UniProt Q07820)
Sequence of UniProt Q07820 (whole entry, looked up): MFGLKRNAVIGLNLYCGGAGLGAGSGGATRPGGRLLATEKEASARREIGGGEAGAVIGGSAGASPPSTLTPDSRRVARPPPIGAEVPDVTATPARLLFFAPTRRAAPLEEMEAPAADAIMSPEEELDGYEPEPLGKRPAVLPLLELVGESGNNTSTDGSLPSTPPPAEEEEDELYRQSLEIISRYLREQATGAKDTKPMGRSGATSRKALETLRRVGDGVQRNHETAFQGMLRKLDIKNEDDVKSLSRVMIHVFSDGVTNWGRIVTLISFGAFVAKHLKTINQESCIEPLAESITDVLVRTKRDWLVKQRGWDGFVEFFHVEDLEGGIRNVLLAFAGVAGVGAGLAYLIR
TAF1L BD2: Transcription initiation factor TFIID subunit 1-like, BD2 (TAF1L, Homo sapiens, UniProt Q8IZX4)
NTRK3: NT-3 growth factor receptor (NTRK3, Homo sapiens, UniProt Q16288)
Lysine--tRNA ligase, cytoplasmic: Lysine--tRNA ligase, cytoplasmic (Arabidopsis thaliana, UniProt Q9ZPI1)
Sequence of UniProt Q9ZPI1 (whole entry, looked up): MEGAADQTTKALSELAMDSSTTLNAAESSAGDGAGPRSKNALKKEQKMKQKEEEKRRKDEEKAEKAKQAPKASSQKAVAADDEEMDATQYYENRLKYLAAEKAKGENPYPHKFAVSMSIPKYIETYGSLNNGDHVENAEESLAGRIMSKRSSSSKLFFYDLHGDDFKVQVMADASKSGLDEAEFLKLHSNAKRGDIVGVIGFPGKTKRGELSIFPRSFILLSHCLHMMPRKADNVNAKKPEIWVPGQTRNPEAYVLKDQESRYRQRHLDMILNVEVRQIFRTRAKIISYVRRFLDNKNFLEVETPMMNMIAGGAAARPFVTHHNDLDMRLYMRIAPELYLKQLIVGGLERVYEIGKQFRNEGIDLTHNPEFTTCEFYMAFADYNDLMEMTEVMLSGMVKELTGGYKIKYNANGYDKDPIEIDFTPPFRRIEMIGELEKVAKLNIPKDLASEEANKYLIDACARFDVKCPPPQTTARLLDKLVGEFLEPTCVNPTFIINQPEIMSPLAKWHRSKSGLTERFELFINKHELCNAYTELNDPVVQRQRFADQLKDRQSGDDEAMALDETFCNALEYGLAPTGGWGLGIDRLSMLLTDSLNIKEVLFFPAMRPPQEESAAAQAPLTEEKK
CDK6 with cyclin D1: Cyclin-dependent kinase 6, with cyclin D1 (CDK6, Homo sapiens, UniProt Q00534)
Sequence of UniProt Q00534 (whole entry, looked up): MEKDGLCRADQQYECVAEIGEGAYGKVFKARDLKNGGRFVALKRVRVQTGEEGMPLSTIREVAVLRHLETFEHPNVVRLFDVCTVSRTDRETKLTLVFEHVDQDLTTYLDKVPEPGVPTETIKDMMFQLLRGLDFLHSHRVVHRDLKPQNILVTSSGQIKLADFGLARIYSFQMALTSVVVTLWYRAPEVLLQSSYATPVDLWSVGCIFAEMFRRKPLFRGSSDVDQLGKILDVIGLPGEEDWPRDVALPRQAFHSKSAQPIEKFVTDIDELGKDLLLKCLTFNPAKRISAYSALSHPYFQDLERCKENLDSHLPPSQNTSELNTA
DNA polymerase catalytic subunit: DNA polymerase catalytic subunit (Human cytomegalovirus, UniProt P08546)
Sequence of UniProt P08546 (whole entry, looked up): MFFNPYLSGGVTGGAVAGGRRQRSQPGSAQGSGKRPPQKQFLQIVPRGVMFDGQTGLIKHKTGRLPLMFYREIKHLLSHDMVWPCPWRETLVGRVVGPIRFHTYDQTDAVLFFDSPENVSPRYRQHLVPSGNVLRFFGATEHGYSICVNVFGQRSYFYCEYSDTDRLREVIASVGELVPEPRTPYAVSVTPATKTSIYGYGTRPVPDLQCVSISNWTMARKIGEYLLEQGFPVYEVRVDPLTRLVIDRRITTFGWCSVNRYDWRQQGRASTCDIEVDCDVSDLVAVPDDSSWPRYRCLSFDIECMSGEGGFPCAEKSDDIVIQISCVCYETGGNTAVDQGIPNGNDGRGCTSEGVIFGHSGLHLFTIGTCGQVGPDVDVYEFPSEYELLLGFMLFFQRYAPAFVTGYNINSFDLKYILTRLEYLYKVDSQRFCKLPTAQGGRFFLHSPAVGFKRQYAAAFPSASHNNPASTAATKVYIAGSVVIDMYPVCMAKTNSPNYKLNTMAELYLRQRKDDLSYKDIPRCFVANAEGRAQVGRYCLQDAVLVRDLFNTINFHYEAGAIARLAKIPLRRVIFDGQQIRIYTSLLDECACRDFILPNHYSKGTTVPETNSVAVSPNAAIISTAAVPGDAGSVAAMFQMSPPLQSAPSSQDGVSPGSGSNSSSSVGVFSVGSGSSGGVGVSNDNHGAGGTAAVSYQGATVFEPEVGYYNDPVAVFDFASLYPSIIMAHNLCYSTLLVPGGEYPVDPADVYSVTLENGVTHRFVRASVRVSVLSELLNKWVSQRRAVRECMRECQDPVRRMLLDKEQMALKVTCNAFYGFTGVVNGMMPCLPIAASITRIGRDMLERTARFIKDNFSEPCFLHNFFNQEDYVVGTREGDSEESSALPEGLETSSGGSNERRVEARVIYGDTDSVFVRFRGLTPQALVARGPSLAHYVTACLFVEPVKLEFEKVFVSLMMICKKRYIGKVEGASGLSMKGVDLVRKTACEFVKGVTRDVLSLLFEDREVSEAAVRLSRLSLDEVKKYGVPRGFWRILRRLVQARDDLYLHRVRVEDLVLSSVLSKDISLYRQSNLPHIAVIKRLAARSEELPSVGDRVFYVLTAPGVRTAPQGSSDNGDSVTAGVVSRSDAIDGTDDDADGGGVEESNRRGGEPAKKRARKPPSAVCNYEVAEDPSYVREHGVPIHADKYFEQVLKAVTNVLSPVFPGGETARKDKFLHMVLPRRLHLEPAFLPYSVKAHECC
Sequence of UniProt P02776 (whole entry, looked up): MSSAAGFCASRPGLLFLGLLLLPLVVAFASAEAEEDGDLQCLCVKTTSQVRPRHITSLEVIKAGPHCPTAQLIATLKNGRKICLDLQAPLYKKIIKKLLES
Sequence of UniProt Q9NXA8 (whole entry, looked up): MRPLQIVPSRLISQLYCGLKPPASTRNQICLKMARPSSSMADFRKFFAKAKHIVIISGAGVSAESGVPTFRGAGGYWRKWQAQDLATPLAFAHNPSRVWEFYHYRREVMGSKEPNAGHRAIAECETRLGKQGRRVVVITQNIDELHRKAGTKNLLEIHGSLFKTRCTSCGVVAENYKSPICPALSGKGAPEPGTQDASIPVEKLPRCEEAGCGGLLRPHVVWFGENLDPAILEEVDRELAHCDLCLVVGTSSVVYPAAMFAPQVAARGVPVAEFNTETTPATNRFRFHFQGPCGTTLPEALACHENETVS

Structure (SMILES) | target | test | system | conditions | IC50
Fc1ccc(-c2nc(-c3ccc4ccccc4c3F)[nH]c2-c2ccncc2)cc1 | CSNK1E | inhibitor | – | – | 16 ± 3 nM
C[C@]1(c2nc(-c3cccc(N4CCNCC4)c3)no2)CCCc2sc(N)c(C#N)c21 | GTPase KRas, with SOS1 (KRAS, Homo sapiens, UniProt P01116) | KRAS wild type-SOS1 interaction, inhibitor, AlphaScreen | – | geometric mean | 1250 nM
Cc1nn(C)c2ncc(C(=O)Nc3ccccc3)c(Cl)c12 | 60 kDa heat shock protein, mitochondrial with HSP10 | HSP60/10-mediated MDH refolding | – | 5 min, preincubation before ATP, with: denatured malate dehydrogenase | 15000 nM
C[C@@H](CC(=O)N1CCCC1)NC(=O)CCS(=O)(=O)Nc1ccc(C(F)(F)F)c(Cl)c1 | DRD2 | – | – | – | > 100000 nM
Cn1cnc(Cn2ccc3ccc(CNCc4[nH]c5ccccc5c4[C@H]4NC(=O)c5ccc(O)cc54)cc32)c1 | GTPase KRas, GppNHp; with RAF1 RBD (KRAS, Homo sapiens, UniProt P01116, G13D) | HTRF | – | – | 25900 ± 14100 nM
Cc1ccc(-c2cc(Br)cc(Br)c2)n1-c1cccc(F)c1 | PTGS2 | enzyme activity, inhibitor, fluorogenic resorufin | – | – | 10100 ± 200 nM
C[C@H]1CN(C)CCN1c1nccc(-c2cc([C@@]3(C)CCCc4sc(N)c(C#N)c43)on2)n1 | KRAS C118S/G12V with SOS1 | KRAS G12V-SOS1 binding, inhibitor, AlphaScreen | – | – | 42 nM
COc1ccccc1-c1nccc(COc2ccccc2C[C@@H](Oc2cccc3oc(-c4ccc(F)cc4)c(-c4ccc(OCCN5CCN(C)CC5)c(Cl)c4C)c23)C(=O)O)n1 | MCL1 | binding, quench | – | – | 1.3 nM
Cc1[nH]c(C)c(S(=O)(=O)Nc2c(Cl)ccc(Cl)c2Cl)c1C(=O)N1CCC(F)(F)C1 | DRD2 | – | – | – | > 100000 nM
Cc1cc2c(cc1N1C(=O)c3cccc4c(N5CCN(CC6CC6)CC5)ccc(c34)C1=O)n(C)c(=O)n2C | TAF1L BD2 | HTRF | – | GST-tagged protein | 33.4 nM
Cc1[nH]c(C)c(S(=O)(=O)Nc2ccc([S+](C)[O-])c(Cl)c2)c1C(=O)N1CCC(F)(F)C1 (centres unmarked) | DRD2 | – | – | – | > 100000 nM
CC[C@@H]1[C@H](F)C(=O)N[C@@H]1COc1nccc2cc(C(N)=O)c(OC)cc12 | PRKD2 (Homo sapiens, UniProt Q9BZL6) | ATP probe binding, KiNativ profiling, item: PKD2 Lys1 probe site | THP-1 cell lysate | – | > 5000 nM
C[C@H]1Oc2cc(cnc2N)-c2c(nn(C)c2C#N)CN(C)C(=O)c2ccc(F)cc21 | NTRK3 | enzyme activity, inhibitor | – | with: 1 mM ATP | 226 nM
CN1CCN(c2ccc(Nc3ncc4cc(C#N)c(=O)n(C5CCCC5)c4n3)cc2)CC1 | SLK (Homo sapiens, UniProt Q9H2G2) | – | – | – | 527 nM
Cc1cc(Nc2ncc(Cl)c(Nc3ccccc3S(=O)(=O)C(C)C)n2)c(OC(C)C)cc1C1CCNCC1 | NTRK3 | enzyme activity, inhibitor | – | with: 1 mM ATP | > 1100 nM
CC(C)CCC[C@@H](C)[C@H]1CC[C@H]2[C@@H]3CC[C@H]4C[C@@H](O[C@@H]5O[C@H](COS(=O)(=O)O)[C@@H](O[C@H]6O[C@H](COS(=O)(=O)O)[C@@H](O[C@H]7O[C@H](COS(=O)(=O)O)[C@@H](O[C@H]8O[C@H](COS(=O)(=O)O)[C@@H](OS(=O)(=O)O)[C@H](OS(=O)(=O)O)[C@H]8OS(=O)(=O)O)[C@H](OS(=O)(=O)O)[C@H]7OS(=O)(=O)O)[C@H](OS(=O)(=O)O)[C@H]6OS(=O)(=O)O)[C@H](OS(=O)(=O)O)[C@H]5OS(=O)(=O)O)CC[C@]4(C)[C@H]3CC[C@]12C | Platelet factor 4 (Homo sapiens, UniProt P02776) | PF4 binding to heparin, inhibitor, BLI competition | – | with: immobilized heparin | 9.62 ± 0.84 nM
Nc1cc(C(=O)NCC2CCCCC2)sn1 | Lysine--tRNA ligase, cytoplasmic | enzyme activity, inhibitor | – | – | 5010 nM
Cc1cc2c(cc1N1C(=O)c3cccc4c(N(C)CCN5CCCC5)ccc(c34)C1=O)n(C)c(=O)n2C | TAF1L BD2 | HTRF | – | GST-tagged protein | 32.7 nM
Nc1nsc(C(=O)NCC2(F)CCCCC2)c1Cl | Lysine--tRNA ligase, cytoplasmic | enzyme activity, inhibitor | – | – | 1260 nM

Structure (SMILES) | target | test | system | conditions | IC50
CN(C)C(=O)c1cc2cnc(Nc3ccc(-c4cccc5c(=O)cc(N6CCNCC6)oc45)cc3)nc2n1C1CCCC1 | CDK6 with cyclin D1 | inhibitor, HotSpot radiometric kinase | – | with: 10 µM ATP, cyclin D1 | 390 nM
CN1C(=N)NC(=O)/C1=C/c1ccc(S(C)(=O)=O)cc1 | PTGS2 | inhibitor | – | – | 310 nM
O=C(O)CCNC(=S)NCCCC[C@H](NC(=O)CCC(=O)NCCOCCOCCCCCCCl)C(=O)N[C@@H](Cc1c[nH]c2ccccc12)C(=O)NC1CCC1 | SIRT5 (Homo sapiens, UniProt Q9NXA8) | enzyme activity, inhibitor | – | – | 52 ± 4 nM
Cc1ccc(NS(=O)(=O)c2c(C(=O)N3CCC(F)(F)C3)cnn2C)cc1Cl | DRD2 | – | – | – | > 100000 nM
Cc1cc(Nc2ccc3ncn([C@@H]4CCc5ccc(F)cc54)c3n2)[nH]n1 | JAK1 (Homo sapiens, UniProt P23458) | enzyme activity, inhibitor | – | – | 1.65 ± 0.8 nM
Cc1cc2c(cc1N1C(=O)c3cccc4c(Br)ccc(c34)C1=O)n(C)c(=O)n2C | TAF1L BD2 | HTRF | – | GST-tagged protein | 18.8 nM
Cc1ncsc1-c1ccc([C@H](C)NC(=O)[C@@H]2C[C@@H](O)CN2C(=O)[C@@H](NC(=O)CCCCCC(=O)N2CCC3(CC2)CCN(c2cncc(Nc4ncc(Cl)c(-c5cccc(-c6ccccc6)c5)n4)c2)C3=O)C(C)(C)C)cc1 | VHL (Homo sapiens, UniProt P40337) | target engagement, ligand | cells | – | 16700 nM
COc1nc(NCc2cn(-c3ccc(C(=O)Nc4ccc(C(F)(F)F)cc4)cc3)nn2)nc(OC)n1 | Collagenase 3 (MMP13, Homo sapiens, UniProt P45452) | – | – | – | 275 ± 17 nM
O=C(Nc1cccc(OS(=O)(=O)c2ccc(Cl)cc2)c1)c1ccc2ncccc2c1 | P2X purinoceptor 7 (P2RX7, Homo sapiens, UniProt Q99572) | calcium mobilization, antagonist | MCF7 transfected with P2RX7 | with: 100 µM BzATP | 813 ± 83 nM
Cc1cccc(C)c1-c1nc(-c2ccc(F)cc2)c(-c2ccncc2)[nH]1 | CSNK1E | inhibitor | – | – | 99.5 ± 28 nM
C[C@H]1CN(C)CCCN1c1nccc(-c2noc([C@@]3(C)CCCc4sc(N)c(C#N)c43)n2)n1 | KRAS C118S/G12V with SOS1 | KRAS G12V-SOS1 interaction, inhibitor, AlphaScreen | – | geometric mean | 9 nM
CN(C)c1ccc(/C=C/c2cn(C(=O)/C=C/c3ccccc3)cc2C(=O)c2ccccc2)cc1 | PTGS2 | inhibitor | – | – | 550 nM
COc1ccc(-c2cc(OCC(=O)N(C)Cc3cccnc3C)nc(-n3nc(C)cc3C)n2)cc1 | LNPEP (Homo sapiens, UniProt Q9UIQ6) | oxytocin trimming, HPLC | – | 30 min, 37 °C, limited by solubility, with: oxytocin 40 µM | > 100000 nM
Fc1ccc(-c2nc(-c3c(Cl)cccc3Cl)[nH]c2-c2ccncc2)cc1 | CSNK1E | inhibitor | – | – | 31.5 ± 3.2 nM
Cc1[nH]c(C)c(S(=O)(=O)Nc2ccc(I)c(Cl)c2)c1C(=O)N1CCC(F)(F)C1 | DRD2 | – | – | – | > 100000 nM
Cc1nc2ccc(Cl)cc2c(=O)n1NC(=O)CCl | XDH (Bos taurus, UniProt P80457) | enzyme activity, inhibitor | – | – | 233300 ± 2120 nM
Fc1ccc(-c2nc(-c3c(F)cccc3I)[nH]c2-c2ccncc2)cc1 | CSNK1E | inhibitor | – | – | 63.5 ± 11.4 nM
CN(C)C(=O)c1cc2cnc(Nc3ccc(-c4cccc5c(=O)cc(N6CCOCC6)oc45)cc3)nc2n1C1CCCC1 | CDK6 with cyclin D1 | inhibitor, HotSpot radiometric kinase | – | with: 10 µM ATP, cyclin D1 | 339 nM
CCn1c(-c2nc3cc(C(=O)N4CCC[C@@H](N)C4)cc(OC)c3n2C)cc2cccnc21 | DRD2 | antagonist, GTPγS LEADseeker | – | – | 39800 nM

Structure (SMILES) | target | test | system | conditions | IC50
O=C(Nc1cccnn1)N1CCC(=Cc2cccc(Oc3ccc(C(F)(F)F)cn3)c2)CC1 | FAAH (Homo sapiens, UniProt O00519) | enzyme activity, inhibitor | COS cells expressing human FAAH | 1 h | 4.3 nM
Nc1nsc(C(=O)NCc2c(F)cccc2Cl)c1Cl | Lysine--tRNA ligase, cytoplasmic | enzyme activity, inhibitor | – | – | > 100000 nM
CC1(F)CN(C(=O)Cn2c(=O)c(C(=O)NCc3ccc(Cl)cc3)cc3nc(N4CCNC4=O)cnc32)C1 | DNA polymerase catalytic subunit | enzyme activity | – | single determination | 327 nM
C[C@@H]1O[C@@H](Oc2c(-c3cc(O)c(O)c(O)c3)oc3cc(O)cc(O)c3c2=O)[C@H](O)[C@H](O)[C@H]1O | α-glucosidase | enzyme activity | – | with: pNPG substrate | 254 µg/mL
CCc1c(-c2cccc(Cl)c2C)c2c(N[C@H](Cc3ccccc3)C(=O)O)ncnc2n1C (single isomer, unassigned) | MCL1 | – | – | – | 8700 nM
COc1cc(C(=O)NS(=O)(=O)c2ccccc2C)ccc1Cc1cn(C)c2ccc(NC(=O)OC3CCCC3)cc12 | LRRC8A/LRRC8C (Homo sapiens, UniProt Q8IWT6+Q8TDW0, L134K/L136K) | ion current, inhibitor, whole-cell patch clamp | HCT116 LRRC8-/- transfected | at -100 mV | 3900 nM
C=CC(=O)Nc1cc(Nc2nccc(-c3cn(C)c4ccccc34)n2)c(OC)cc1N(C)CCN(C)C | SLC47A2 (Homo sapiens, UniProt Q86VL8) | inhibitor | – | – | 23000 nM
COc1cc2c(c(OC)c1OC)-c1c(cc3c(c1OC)OCO3)C[C@H](C)[C@](C)(O)[C@H]2OC(=O)c1ccccc1 | Cytochrome P450 3A5 (CYP3A5, Homo sapiens, UniProt P20815) | testosterone 6β-hydroxylation, inhibitor, recombinant enzyme | – | 15 min, pH 7.4, with: testosterone 50 µM | 85 ± 40 nM
O=c1nc(N2CCN(CC3CCCCC3)CC2)sc2c([N+](=O)[O-])cc(C(F)(F)F)cc12 | CYP2C19 (Homo sapiens, UniProt P33261) | – | – | 60 (unit not given), pH 7.4 | > 10000 nM
CC1=NOC(CNC(=O)c2cnc3c(c(C)nn3C)c2Cl)C1 (centres unmarked) | 60 kDa heat shock protein, mitochondrial with HSP10 | HSP60/10-mediated MDH refolding | – | 30 min, preincubation before ATP, with: denatured malate dehydrogenase | > 100000 nM
Cc1[nH]c(C)c(S(=O)(=O)Nc2cc(Cl)ccc2C(F)(F)F)c1C(=O)N1CCC(F)(F)C1 | DRD2 | – | – | – | > 100000 nM
Cc1cc(Nc2ccc(SC(F)(F)F)cc2)n2ncnc2n1 | DHODH (Homo sapiens, UniProt Q02127) | enzyme activity, inhibitor | – | – | > 50000 nM
COCCN1CCN(c2nccc(-c3noc([C@@]4(C)CCCc5sc(N)c(C#N)c54)n3)n2)[C@@H](C)C1 | KRAS C118S/G12V with SOS1 | KRAS G12V-SOS1 interaction, inhibitor, AlphaScreen | – | geometric mean | 131 nM
Cc1[nH]c(C)c(S(=O)(=O)Nc2ccc(C(F)(F)F)c(Cl)c2)c1C(=O)N1CCc2ccccc21 | DRD2 | – | – | – | > 100000 nM
CC1(F)CN(C(=O)Cn2c(=O)c(C(=O)NCc3ccc(Cl)cc3)cc3nc(N4CCN(CC(=O)O)C4=O)cnc32)C1 | DNA polymerase catalytic subunit | enzyme activity | – | at least duplicate | 400 nM
Cc1ccc2[nH]nc(-c3nnc(Nc4ccc(Cl)cc4)s3)c2c1 | α-glucosidase | enzyme activity, inhibitor | – | pH 6.8, with: p-nitrophenyl-α-D-glucopyranoside | 4230 ± 980 nM
Cc1[nH]c(C)c(S(=O)(=O)Nc2ccc([N+](=O)[O-])c(Cl)c2)c1C(=O)N1CCC(F)(F)C1 | DRD2 | – | – | – | > 100000 nM
Cc1[nH]nc(C(F)(F)F)c1Cc1sc2c(c1C(=O)N1C[C@](C)(O)CO1)c(=O)n(C)c(=O)n2C(C)C | SLC16A1 (Homo sapiens, UniProt P53985) | L-lactate transport, fluorescence | yeast expressing MCT1 | with: L-lactate | 68 nM
